Published values gathered from unrelated publications.
Lines come from different studies, so protocols differ.
Target: Cytochrome P450 2D6 (CYP2D6, Homo sapiens, UniProt P10635)
UniProt P10635, sequence (whole entry, looked up): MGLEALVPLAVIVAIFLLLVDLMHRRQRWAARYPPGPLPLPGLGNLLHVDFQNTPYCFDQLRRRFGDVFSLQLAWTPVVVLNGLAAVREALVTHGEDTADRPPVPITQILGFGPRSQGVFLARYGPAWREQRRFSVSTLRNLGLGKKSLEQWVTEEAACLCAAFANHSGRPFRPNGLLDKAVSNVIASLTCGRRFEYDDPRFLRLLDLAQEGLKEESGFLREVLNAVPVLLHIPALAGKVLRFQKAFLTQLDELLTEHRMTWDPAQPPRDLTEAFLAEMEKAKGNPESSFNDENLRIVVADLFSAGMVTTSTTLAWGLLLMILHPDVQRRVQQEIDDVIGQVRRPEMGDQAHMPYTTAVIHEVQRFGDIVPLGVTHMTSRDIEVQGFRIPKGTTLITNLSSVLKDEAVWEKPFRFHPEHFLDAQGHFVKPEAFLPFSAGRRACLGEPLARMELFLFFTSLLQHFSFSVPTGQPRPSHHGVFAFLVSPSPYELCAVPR

OCC1OC(n2cnc3c(NCc4ccc(Br)s4)ncnc32)C(O)C1O (stereo not shown)  IC50 (enzyme activity, inhibitor, fluorescence; pH 7.4, added: AMMC): > 10 µM
CCC1(CC)CC(=O)N(C2c3cc(C(=O)NC4c5ccccc5CC4O)ccc3OC2(C)COC)C(=N)N1 (stereo not shown)  IC50 (enzyme activity, inhibitor): 19.3 µM
NC(=O)c1ccc(C(=O)NOCc2ccc(Sc3cccc(Cl)c3)c(C(F)(F)F)c2)cc1  IC50 (pooled human liver microsomes; 20 min): 12.7 µM
O=C(NC1CCC(F)(F)CC1)C(c1cncnc1)N(C(=O)C(F)Cl)c1ccc(OC(F)(F)F)cc1 (stereo not shown)  IC50 (enzyme activity, inhibitor; 10 (unit not given)): 44.5 µM
CC(C)(C)n1ncc2c(=O)n(Cc3cccc(F)c3)c(NCc3ccc(F)cn3)nc21  IC50 (enzyme activity, inhibitor): 7.8 µM
CCC1(CC)CC(=O)N(C2CCOc3ccc(C(=O)NC4CC(C)(C)Oc5ccccc54)cc32)C(=N)N1 (stereo not shown)  IC50 (enzyme activity, inhibitor): > 20 µM
C[C@H]1CN(C(=O)c2cn(-c3ccnc(N)n3)c3cc(C#CC4(O)CCCCC4)ccc23)CCN1  IC50 (enzyme activity, inhibitor; human, liver microsomes; 10 min): > 50 µM
N=C(N)SCc1ccccc1CSC(=N)N  IC50 (enzyme activity, inhibitor): 8.1 µM
C=C(NC(=O)c1csc(-c2nc3c(cc2O)-c2nc(cs2)C(=O)NC(C(C)O)C(=O)NC(=C(C)OC)c2nc(cs2)C(=O)NC2c4nc(cs4)C(=O)NC(COC(=O)c4c5c6c(cccc6n4O)COC(=O)C(OC4CC(C)(O)C(N(C)C)C(C)O4)C2OC5)c2nc-3cs2)n1)C(N)=O (stereo not shown)  IC50 (enzyme activity, inhibitor; human, liver microsomes; pH 7.4): > 50 µM
Cc1[nH]nc2c1N=C(c1ccccc1Cl)c1cnc(N3CCOCC3)cc1N2  IC50 (enzyme activity, inhibitor; human, liver microsomes): > 10 µM

Some of these lines once more:
N=C(N)SCc1ccccc1CSC(=N)N  IC50 (enzyme activity, inhibitor): 8.1 µM
